Published values from different studies.
Lines come from different studies, so protocols differ. ± gives the spread as reported.

Structure (SMILES)	host	sample	route	dose	time	notes	Cmax
Cc1c(C(=O)O)ccc2c3n(nc12)[C@@H]1[C@H](C3)N(CC2CC2)[C@@]2(C(=O)Nc3cc(Cl)ccc32)[C@H]1c1cccc(Cl)c1F	female BALB/c nude mice, SJSA-1 xenograft	plasma	oral	2 mg/kg once daily	–	mean	2210 nM
COc1cc([C@@H]2Oc3cc([C@H]4Oc5cc(O)cc(O)c5C(=O)[C@@H]4O)ccc3O[C@H]2CO)ccc1O	FVB wild-type mice	plasma	oral gavage	500 mg/kg silymarin	–	–	590 nM
CO[C@H]1C[C@@H]2CC[C@@H](C)[C@@](O)(O2)C(=O)C(=O)N2CCCC[C@H]2C(=O)O[C@H]([C@H](C)C[C@@H]2CC[C@@H](OC(=O)NCCOCCOCCOCCOCCOCCOCCOCCOCCC(=O)N3CCc4cc(Cn5nc(-c6ccc7oc(N)nc7c6)c6c(N)ncnc65)ccc4C3)[C@H](OC)C2)C[C@@H](O)[C@H](C)/C=C(\C)[C@@H](O)[C@@H](OC)C(=O)[C@H](C)C[C@H](C)/C=C/C=C/C=C/1C	tumour-bearing xenograft mice	plasma	intraperitoneal	1 mg/kg	–	weekly dosing	1990 nM
CCN1CCN(Cc2ccc(NC(=O)c3ccc(C)c(NC(=O)c4cncc(-c5cccs5)c4)c3)cc2C(F)(F)F)CC1	C57BL/6 mice	epithelial lining fluid	intraperitoneal	20 mg/kg	–	–	1860 ng/mL
CCc1nc(C(N)=O)c(Nc2ccc(N3CCC(N4CCN(C)CC4)CC3)c(OC)c2)nc1NC1CCOCC1	female FVB mice, wild-type	plasma	oral	10 mg/kg	–	single dose	327 ± 33 ng/mL
COc1cc(C)[nH]c(=O)c1CN1CCc2c(Cl)cc([C@H](OC)C3COC3)c(Cl)c2C1=O	female CB17 SCID mice, HT-1376 xenograft	plasma	–	75 mg/kg	day 1	–	3740 ng/mL
COc1ccc2cc(CCC[18F])ccc2c1	Balb/c mice, male	plasma	intravenous	dose not given	–	–	12.6 ± 6.4 %ID/mL
CCNc1nc2c(c(N3CC(=O)Nc4cc(OC)ccc43)n1)CCC2	C57BL/6 mice, female	plasma	intravenous	4 mg/kg	–	–	1560 ng/mL
CC1CCNc2c(C(=O)NC/C=C/S(C)(=O)=O)cccc21 (centres unmarked)	male C57BL/6 mice	plasma	oral	10 mg/kg	–	–	405 nM
C[C@H]1[C@@H](O)O[C@@H]2O[C@@]3(C)CC[C@H]4[C@H](C)CC[C@@H]1[C@@]24OO3	female NSG mice	plasma	oral	120 mg/kg artesunate	–	–	3960 ng/mL
COc1cc([C@H]2Oc3ccc([C@H]4Oc5cc(O)cc(O)c5C(=O)[C@@H]4O)cc3O[C@@H]2CO)ccc1O	FVB wild-type mice	plasma	oral gavage	500 mg/kg silymarin	–	–	240 nM
CNC(=O)c1cc(Oc2ccc(NC(=O)Nc3ccc(Cl)c(C(F)(F)F)c3)c(F)c2)ccn1	male DBA/1lacJ Oatp1b2 knockout mice	plasma	oral	10 mg/kg single dose	–	–	3640 ± 172 ng/mL
CNC(=O)c1cc(Oc2ccc(NC(=O)Nc3ccc(Cl)c(C(F)(F)F)c3)cc2)ccn1	female wild-type DBA1/lacJ mice	plasma	oral	10 mg/kg	–	no rifampin, geometric mean	4240 ng/mL
Cn1c(C(F)(F)F)cc(=O)n(-c2cc(Oc3cccnc3OCC(=O)O)c(Cl)cc2F)c1=O	Crl:CD1(ICR) mice, male	plasma	oral diet	100 ppm in diet	day 1	90-day toxicity study	332 ng/mL

Repeated from above:
Structure (SMILES)	host	sample	route	dose	time	notes	Cmax
COc1ccc2cc(CCC[18F])ccc2c1	Balb/c mice, male	plasma	intravenous	dose not given	–	–	12.6 ± 6.4 %ID/mL
CCNc1nc2c(c(N3CC(=O)Nc4cc(OC)ccc43)n1)CCC2	C57BL/6 mice, female	plasma	intravenous	4 mg/kg	–	–	1560 ng/mL
